Measurements gathered from unrelated publications.
Numbered parts are unrelated; each lists some results of a single study. Positions count from the first letter of the parent shown.

Set 1
Target: Interferon regulatory factor 3, full length, phosphomimetic (IRF3, Homo sapiens, UniProt Q14653, residues 1-427, S386D/S396D/S398D/S402D/T404D/S405D)
Sequence of UniProt Q14653 (whole entry, unmodified, looked up): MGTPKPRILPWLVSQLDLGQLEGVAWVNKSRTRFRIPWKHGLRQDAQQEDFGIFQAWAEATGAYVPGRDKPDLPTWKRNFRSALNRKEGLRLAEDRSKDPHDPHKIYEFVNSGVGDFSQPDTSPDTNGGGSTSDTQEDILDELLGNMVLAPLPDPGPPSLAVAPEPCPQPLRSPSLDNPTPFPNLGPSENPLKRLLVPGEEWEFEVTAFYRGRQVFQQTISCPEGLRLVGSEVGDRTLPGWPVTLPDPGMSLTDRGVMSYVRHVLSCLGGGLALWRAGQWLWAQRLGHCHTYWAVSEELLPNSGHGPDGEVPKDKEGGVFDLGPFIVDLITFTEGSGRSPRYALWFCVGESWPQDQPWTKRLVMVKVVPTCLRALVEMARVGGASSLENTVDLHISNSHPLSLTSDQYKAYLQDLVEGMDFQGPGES
Method: protein-binding microarray
Molecule type: double-stranded DNA, one strand shown
Sample: in vitro
Concentration: 2540 nM top
Notes: 60-bp whole probe
Added: salmon DNA 0.4 mg/ml
Baseline: random background probes
Direction: higher = stronger binding
Shared flanks, not repeated: GCCTAGCAC … GTCTTGATTCGCTTGACGCTGCTG
Oligonucleotide | fitted relative affinity [z-score]
GACGGCCTGCTTTTCCTGACGTGCTAG | -0.493
TTAGGTCTCGGTTTCGGTTAGTGCTAG | 5.56
TTCCTTTACTTTCTTTTTTTGTGCTAG | 3.63
GACGGACTGGGTTTCGAGACGTGCTAG | 0.403
GACGGACTGAGGTTTCGGGACGTGCTA | 1.35
TTAGATCTCAGTTTCGCTTAGTGCTAG | 2.96
TTAGGTTTCGGGACGGGGTTAGTGCTA | 3.19
TTAGGTATCGGGGATCGGTTAGTGCTA | 0.31
GACGGAATCGACACTGGGGACGTGCTA | -0.12
GACGGTTTCGACTCTGGGGACGTGCTA | 4
TCATGTGTGCATCTATCACTGTGCTAG | -0.0734
GACGGTTTCCTACTGCTGAAGTGCTAG | 5.38
GACGGTCTCGGTTTCGGTACGTGCTAG | 5.63
TCATCTCTGGGCTGTGGGACTGTGCTA | 0.265
GACGGTTTTGACACTGGGGACGTGCTA | 0.686
TCATTTTTCACTATTGCACTGTGCTAG | 2.28
GTCGGTTTCGGACTGGGGACGTGCTAG | 5.59
GACGATCGCAGTTTCGAGACGTGCTAG | 1.83
TTAGGTCTCCTACAGCTTTAGTGCTAG | -0.169
TCATCTCTACTTGTGTCACTGTGCTAG | 1.19
GATGGACTGCTACTGCTGACGTGCTAG | -0.918
TTAGGTTTCGGTTTCGGTAAGTGCTAG | 12.4
TTAGGACTGAACACTGGGTTAGTGCTA | -0.416
AGGCAGGCATAAAGGAAAAAGTGCTAG | -0.878
TGTTACATTTATATCTTTGCGTGCTAG | 1.55

Set 2
Target: CCND1, cyclin fold, Cln2 fusion (human)
Method: yeast growth competition, sequencing
Sample: yeast
Notes: weak parent motif
Baseline: not given
Direction: higher = stronger binding
Starting sequence: CABLES2 docking peptide (human); ICAKRSLCAAFSV
Change | normalised enrichment score
ICAKRALCAAFSV [S6A] | 0.511
ICAKRSLCAAFAV [S12A] | 0.0814
ACAKRSLCAAFSV [I1A] | -0.14
ICAARSLCAAFSV [K4A] | -0.206
ICAKRSACAAFSV [L7A] | -0.129

Set 3
Target: Ras GTPase-activating protein-binding protein 1, C-terminal RGG region (G3BP1, Homo sapiens, UniProt Q13283)
Sequence of UniProt Q13283 (whole entry, looked up): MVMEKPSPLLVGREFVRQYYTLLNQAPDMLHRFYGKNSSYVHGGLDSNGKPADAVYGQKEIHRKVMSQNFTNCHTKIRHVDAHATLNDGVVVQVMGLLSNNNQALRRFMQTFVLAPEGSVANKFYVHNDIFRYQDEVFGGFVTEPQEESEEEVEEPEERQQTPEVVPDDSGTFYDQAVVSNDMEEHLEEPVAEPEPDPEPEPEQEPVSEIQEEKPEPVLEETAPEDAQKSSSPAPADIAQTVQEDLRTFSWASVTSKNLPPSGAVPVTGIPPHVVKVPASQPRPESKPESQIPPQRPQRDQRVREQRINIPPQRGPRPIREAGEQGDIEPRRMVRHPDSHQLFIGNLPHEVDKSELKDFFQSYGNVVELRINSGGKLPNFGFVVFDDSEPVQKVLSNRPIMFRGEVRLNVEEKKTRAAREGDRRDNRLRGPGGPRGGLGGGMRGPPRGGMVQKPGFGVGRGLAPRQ
Method: RNA Bind-n-Seq
Molecule type: RNA
Sample: in vitro
Concentration: 1 µM
Notes: whole 134-nt RNA, ends assumed
Added: 150 mM KCl
Baseline: input library
Direction: higher = stronger binding
Shared flanks, not repeated: GGGAGUUCUACAGUCCGACGAUC … UGGAAUUCUCGGGUGUCAAGG
Oligonucleotide | log2 enrichment
AAGUCCUGUGCUACACAUCGUAUGUACCGAAUCGGGGCCCCGGGCCCCGGGCCCCGGAAAGUAUUAUGUUACGCCGUUCGGAUCUGCACU | -1.74
CCUGUGCUACACAUCGUAUGUACCGAAUCGGGGUUUGGGGAAAAAAAGGGGUUUUUGGGGAAAGUAUUAUGUUACGCCGUUCGGAUCUGC | 1.24
CACAGACAACACGCACCCACACAGACACAGAGGGAAGGGGUUGGGAUGGGGACAGGGUGCACAGCAGGGGGGGGUAGGACCCCAGCCCCU | -0.975
CUGUGCUACACAUCGUAUGUACCGAAUCGGGUUUUUUUGGGUUUUUUUGGGUUUUUUUGGGAAAGUAUUAUGUUACGCCGUUCGGAUCUG | -1.2
CACAGACAACACGCACCCACACAGACACAGAGGGAAGGGGUUGGGAUGGGGACAGGGUGCACAGCAGGGCGGGGUAGGACCCCAAAACCU | -0.395
CUCAAGUCCUGUGCUACACAUCGUAUGUACCGAAUCGGUGGAAAAAGGUUUGGAAAGUAUUAUGUUACGCCGUUCGGAUCUGCACUUCCA | -1.18
GCAGGAAGUAAAAACAAAUGGAAAGGCUUCGGAUAGUGGCAGGGGUGGGGGUUGCUAAGGAAAGGGUGGGAUGGGAGUGGGUAAAGAGUU | 1.59
UUUCACAGAGAAGCAAAUGCUGGCACAAGGAUACCCUGCUUACACGACAUCGUGCGCCUGGCUGGGGUACUCAGAUGACACGUUGAAGCA | -0.982
UCCUCAAGUCCUGUGCUACACAUCGUAUGUACCGAAUCGGCGGGCGGCGGGAAAGUAUUAUGUUACGCCGUUCGGAUCUGCACUUCCAGC | -0.709
GCAGGAAGUAAAAACAAAUGGAAAUGCUUCGGAUAGUGGCAGGGGUGGGGGUUGCUAAGGAAAGCGUGGGAUGGGAGUGGGUAAAGAGUU | 1.41

Set 4
Target: Histone acetyltransferase KAT6A, both winged helices, GST fusion (KAT6A, Homo sapiens, UniProt Q92794, residues 1-181)
Method: protein binding microarray
Molecule type: double-stranded DNA, one strand shown
Sample: in vitro
Concentration: not given
Notes: 8-mer, flanks averaged, mean of 2 arrays, mostly near background
Baseline: not given
Direction: higher = stronger binding
Residues (chain): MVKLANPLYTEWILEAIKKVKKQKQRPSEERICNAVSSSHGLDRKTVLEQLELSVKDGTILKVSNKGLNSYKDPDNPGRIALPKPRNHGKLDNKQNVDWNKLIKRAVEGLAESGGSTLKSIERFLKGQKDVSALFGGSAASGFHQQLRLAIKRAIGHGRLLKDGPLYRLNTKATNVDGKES
Oligonucleotide | E-score
CAAACACG | 0.129
AATGGCGT | 0.0488
AGGTCTAT | 0.0321
GTGCCCGA | 0.0856
CTACGCAA | -0.0209
GAGTTGCA | -0.193
ATTACCAA | -0.0275
AGGCAGTG | -0.0415
AAGACTGG | -0.0504
ATTAGATA | -0.0572
GTCGTATA | 0.0597
AACAACGA | -0.0677
TCAAAGAA | -0.0921
CACACAGA | -0.125
CTCCCGAA | -0.134
CTAAGCGA | 0.0229
GTCACACA | -0.0904
GGCACGGA | 0.183
GGGCTGCA | -0.0595
ACTTAGGC | -0.148
AGTGTTGG | -0.0784
AACGGTTC | 0.168

For quick reference, copied from above (set 4):
Oligonucleotide | E-score
GGCACGGA | 0.183
GGGCTGCA | -0.0595
ACTTAGGC | -0.148
AGTGTTGG | -0.0784
AACGGTTC | 0.168
